Values quoted from earlier work, collected from citations in different studies.
Numbered parts are unrelated; values within a part may stem from several laboratories. Numbers after ± are the reported error.

Series 1 — organism: Cryptosporidium parvum; technique: high-throughput screen; concentration: concentration not given
SMILES	activity
N[C@H](Cc1cc(I)c(Oc2ccc(O)c(I)c2)c(I)c1)C(=O)O	inactive
CCc1nc(N)nc(N)c1-c1ccc(Cl)cc1	inactive
CN1CCN(C2=Nc3ccccc3Oc3ccc(Cl)cc32)CC1	inactive
Nc1nc(N)c2nc(-c3ccccc3)c(N)nc2n1	inactive
CO[C@H]1/C=C/O[C@@]2(C)Oc3c(C)c(O)c4c(c3C2=O)C2=NC3(CCN(CC(C)C)CC3)NC2=C(NC(=O)/C(C)=C\C=C\[C@H](C)[C@H](O)[C@@H](C)[C@@H](O)[C@@H](C)[C@H](OC(C)=O)[C@@H]1C)C4=O	inactive
CN(C)CC/C=C1/c2ccccc2COc2ccc(CC(=O)O)cc21	inactive
C[C@H]1C[C@H]2[C@@H]3CCC4=CC(=O)C=C[C@]4(C)[C@@]3(F)[C@@H](O)C[C@]2(C)[C@@]1(O)C(=O)CO	inactive
CC(=O)O[C@]1(C(C)=O)CC[C@H]2[C@@H]3C=C(C)C4=CC(=O)CC[C@]4(C)[C@H]3CC[C@@]21C	inactive
CN(CCOc1ccc(NS(C)(=O)=O)cc1)CCc1ccc(NS(C)(=O)=O)cc1	inactive
CCn1cc(C(=O)O)c(=O)c2cc(F)c(N3CCN(C)CC3)cc21	inactive
O=S(=O)(O)CCS	inactive
COc1cc(C)nc(-n2nc(C)cc2OC)n1	inactive
CC(CCc1ccccc1)NCC(O)c1ccc(O)c(C(N)=O)c1 (centres unmarked)	inactive
NCC(=O)CCC(=O)O	inactive
NC[C@H]1CC[C@H](C(=O)Oc2ccc(CCC(=O)O)cc2)CC1	inactive
CCCCC[C@H](O)/C=C/[C@H]1[C@H](O)CC(=O)[C@@H]1CCCCCCC(=O)O	inactive
CC(C)(S)[C@@H](N)C(=O)O	inactive
Nc1c2c(nc3c1CCC3)CCCC2	inactive
CO/N=C(\C(=O)N[C@@H]1C(=O)N2C(C(=O)O)=C(COC(N)=O)CS[C@H]12)c1ccco1	inactive
CN(CCOc1ccc(CC2SC(=O)NC2=O)cc1)c1ccccn1.Cl (centres unmarked)	inactive
c1cnc(N2CCN(Cc3ccc4c(c3)OCO4)CC2)nc1	inactive
OCc1cccnc1	inactive
CSc1nc2cc(Cl)c(Oc3cccc(Cl)c3Cl)cc2[nH]1	inactive
Cc1ccc(N(CC2=NCCN2)c2cccc(O)c2)cc1	inactive
O=C(c1ccc(F)cc1)C1CCN(CCn2c(=S)[nH]c3ccccc3c2=O)CC1	inactive

Further values, each from its own experiment
CDK2: Cyclin-dependent kinase 2 (CDK2, Homo sapiens, UniProt P24941)
SMILES	target or system	assay	test system	setting	scale	quantity	value
Cc1c(Oc2ccc(F)cc2)c(OC(C)C)nn1-c1ccc(C2CC2)cn1	DHODH (human)	cellular activity				IC50	1200 nM
CC(C)C[C@@H]1NC(=O)[C@H](CC(=O)O)NC(=O)CNC(=O)[C@H](CCCNC(=N)N)NC(=O)[C@H](Cc2ccc(O)cc2)NC(=O)[C@H](CCCCNC(=O)CCc2cn(CCCNC(=O)CCP(=O)(O)CN3CCN(CP(=O)(O)CCC(=O)NCCCn4cc(CCC(=O)NCCCC[C@H]5C(=O)N[C@@H](Cc6ccc(O)cc6)C(=O)N[C@@H](CCCNC(=N)N)C(=O)NCC(=O)N[C@@H](CC(=O)O)C(=O)N[C@@H](CC(C)C)C(=O)N[C@@H](C)C(=O)N[C@@H](Cc6ccc(O)cc6)C(=O)N6CCC[C@@H]6C(=O)N5C)nn4)CCN(CP(=O)(O)CCC(=O)NCCCn4cc(CCC(=O)NCCCC[C@H]5C(=O)N[C@@H](Cc6ccc(O)cc6)C(=O)N[C@@H](CCCNC(=N)N)C(=O)NCC(=O)N[C@@H](CC(=O)O)C(=O)N[C@@H](CC(C)C)C(=O)N[C@@H](C)C(=O)N[C@@H](Cc6ccc(O)cc6)C(=O)N6CCC[C@@H]6C(=O)N5C)nn4)CC3)nn2)N(C)C(=O)[C@H]2CCCN2C(=O)[C@H](Cc2ccc(O)cc2)NC(=O)[C@H](C)NC1=O [gallium-68 labelled]			SCID mice with MDA-MB-231 tumour, kidney	90 min		tissue uptake	70.6 ± 20 %ID/g
O=NN(CCCl)C(=O)NC1CCCCC1			patients, recurrent glioblastoma	dose not given, monotherapy		median progression-free survival	1.9 months
Nc1nc(NCc2ccccc2)nc(-c2cccc(CO)c2)n1	GPR68	cellular potency		concentration not given		inhibition	no effect
O=C(Oc1ccccc1)c1ccccc1		logD7.4 calibration curve				logP	3.6
CNCc1cn(S(=O)(=O)c2cccc(F)c2)c(-c2ccc(F)cc2F)c1OC	CYP2C9	enzyme activity, inhibitor				IC50	> 50000 nM
Cc1[nH]c(/C=C2\C(=O)Nc3ccc(C(=O)N[C@H](C)c4ccc(F)cc4)cc32)c(C)c1NC(=O)CCl	GRK5				relative to: GRK2 IC50 over GRK5 IC50	selectivity ratio	1400 fold
CC(C)C[C@@H](C=O)NC(=O)[C@H](CC(C)C)NC(=O)[C@H](CC(C)C)NC(=O)OCc1ccccc1	Schistosoma mansoni		mouse	dose not given		reduction in infected mice	96%
Cc1cc(C)c(CNC(=O)c2cc(Cl)c3c(c2C)O[C@@](C)([C@H]2CC[C@H](N(C)C)CC2)O3)c(=O)[nH]1			relapsed/refractory ATLL patients	200 mg/day, added: fluconazole		grade ≥3 TEAE incidence	63.6%
C[C@H](c1cccc(C#N)c1)n1cc(Cl)cc(C(N)=O)c1=N	ADRA1D	cellular activity				IC50	15 nM
COc1cnc(-n2cnc(C)n2)c2[nH]cc(C(=O)C(=O)N3CCN(C(=O)c4ccccc4)CC3)c12	CYP3A4					metabolism share	21.2%
O=C(C1CCCCC1)N1CC(=O)N2CCc3ccccc3C2C1 (centres unmarked)	Schistosoma mansoni		juvenile worms, mouse	dose not given		activity against juvenile worms	inactive
O=C(O)CN1CCN(CC(=O)O)CCN(Cc2cccc(C(=O)O)n2)CC1			free ligand	aliphatic carboxylate, first deprotonation		pKa	2.2
CCS(=O)(=O)CNc1cc2cc(c1)Nc1nccc(n1)-c1cccc(c1)OCC/C=C/CN(C)C2	CDK2					IC50	8 nM
[NH2][Pt]([NH2])([Cl])[Cl]						logP	-2.3
COc1cc(N2CCC3(CCN(C)CC3)CC2)ccc1Nc1ncc(Cl)c(Nc2ccccc2P(C)(C)=O)n1			ALK TKI-naive ALK-positive NSCLC patients	dose not given		median PFS	27.7 months
CC/C=C\C/C=C\C/C=C\C/C=C\C/C=C\C/C=C\CCC(=O)O						pKa	4.89
O=C(NO)c1ccccc1				hydroxamic acid		pKa	8.85
CN1C/C=C/CCOc2cccc(c2)-c2ccnc(n2)Nc2ccc(OCC(=O)N3CCCC3)c(c2)C1	CDK2					IC50	390 nM
COC(=O)[C@H](c1ccccc1Cl)N1CCc2sccc2C1						logP	2.58
C[C@@H](Oc1ccc(S(C)(=O)=O)cc1C(=O)N1C[C@@H]2C[C@]2(c2cc(C(F)(F)F)on2)C1)C(F)(F)F			human	oral, 25 mg single dose, added: Meal, high-fat, ~1000 kcal	relative to: fasted state	Cmax increase	42%
COc1cnc(-n2cnc(C)n2)c2c1c(C(=O)C(=O)N1CCN(C(=O)c3ccccc3)CC1)cn2COP(=O)(O)O			HIV-1 patients	600 mg twice daily, day 8		plasma HIV-1 RNA decline	0.791 log10 copies/mL
Cc1ccc([C@@H]2O[C@H](CO)[C@@H](O)[C@H](O)[C@H]2O)cc1Cc1ccc(-c2ccc(F)cc2)s1			human, preserved kidney function	100 mg, steady state, mean		Cmax	1120 ng/mL
CCCCC(CC)COC(=O)CC(C(=O)OCC(CC)CCCC)S(=O)(=O)O (centres unmarked)						pKa	-0.75
COc1ccc2c(O[C@@H]3C[C@H]4C(=O)N[C@]5(C(=O)O)CC5/C=C\CCCCC[C@H](NC(=O)OC5CCCC5)C(=O)N4C3)cc(-c3csc(NC(=O)C(C)C)n3)nc2c1C (some centres unmarked)	HCV NS3	biochemical				IC50	6.7 nM

A few entries again (series 1):
SMILES	activity
CO[C@H]1/C=C/O[C@@]2(C)Oc3c(C)c(O)c4c(c3C2=O)C2=NC3(CCN(CC(C)C)CC3)NC2=C(NC(=O)/C(C)=C\C=C\[C@H](C)[C@H](O)[C@@H](C)[C@@H](O)[C@@H](C)[C@H](OC(C)=O)[C@@H]1C)C4=O	inactive
CN(CCOc1ccc(NS(C)(=O)=O)cc1)CCc1ccc(NS(C)(=O)=O)cc1	inactive
CN1CCN(C2=Nc3ccccc3Oc3ccc(Cl)cc32)CC1	inactive
O=S(=O)(O)CCS	inactive
